# Assay results gathered from unrelated publications.
# ± gives the spread as reported.
# Organism: Trypanosoma cruzi
SMILES,read-out,cells,strain,time,notes,EC50 [µM]
CCOC(=O)CC1SC(=NN=Cc2ccccc2O)NC1=O (stereo not drawn),parasite growth,,,24 h,trypomastigote,19.8
COC(c1ccc2ccccc2c1)(c1ccc2c(c1)c(-c1cccc(Cl)c1)cc(=O)n2C)c1cncn1C (stereo not drawn),parasite growth,NIH3T3,,,"intracellular, amastigote",0.002
Cc1ccc2nc(-c3ccc(Cl)cc3)cn2c1,,3T3 host cells,Tulahuen beta-galactosidase,6 days,,> 5
Clc1ccc(NCc2cncn2Cc2ccc(-c3ccccc3)cc2)cc1-c1ccccc1,parasite growth,mouse Fibroblast,,,"intracellular, amastigote",0.007
O=C1C=CS(=O)(=O)c2cc(Br)ccc21,intracellular amastigote growth,U-937,"Tulahuen, β-galactosidase transfected",72 h,,824
CCOC(=O)CC1SC(=NN=Cc2cccc(Br)c2)NC1=O (stereo not drawn),parasite growth,,,24 h,trypomastigote,18.2
O=C1C(Cc2ccccc2Cl)=CS(=O)(=O)c2ccccc21,intracellular amastigote growth,U-937,"Tulahuen, β-galactosidase transfected",72 h,,229
COC(=O)c1sccc1S(=O)(=O)N1CCN(c2ccc(C(=O)N[C@H](Cc3c[nH]c4ccccc34)C(=O)Nc3ccncc3)c(F)c2)CC1,,mouse C2C12 myoblasts,CA-I/72,72 h,,3.1 ± 1.2
CCOC(=O)c1csc(NN=Cc2cccc(Cl)c2)n1,parasite growth,,,24 h,trypomastigote,4.44
c1ccc(-c2ccc(Cn3cncc3CNc3ccc(N4CCCC4)c(-c4ccccc4)c3)cc2)cc1,parasite growth,mouse Fibroblast,,,"intracellular, amastigote",0.041
O=C1C=CS(=O)(=O)c2ccc(-c3cc(C(F)(F)F)cc(C(F)(F)F)c3)cc21,intracellular amastigote growth,U-937,"Tulahuen, β-galactosidase transfected",72 h,,229
CN(C)c1ccc(NCc2cncn2Cc2ccc(-c3ccccc3)cc2)cc1-c1ccccc1,parasite growth,mouse Fibroblast,,,"intracellular, amastigote",0.026
O=C(N[C@H](Cc1c[nH]c2ccccc12)C(=O)Nc1ccncc1)c1ccc(N2CCN(S(=O)(=O)c3cccs3)CC2)cc1F,,mouse C2C12 myoblasts,CA-I/72,72 h,,0.00082 ± 1e-05
CCOC(=O)CC1SC(=NN=Cc2ccccc2OC)NC1=O (stereo not drawn),parasite growth,,,24 h,trypomastigote,24.2
N#CSCCOc1ccc2ccccc2c1,parasite growth,,,,"intracellular, amastigote",> 10
O=C1C(Cc2cccs2)=CS(=O)(=O)c2ccccc21,intracellular amastigote growth,U-937,"Tulahuen, β-galactosidase transfected",72 h,,116
CCOC(=O)c1csc(NN=Cc2ccco2)n1,parasite growth,,,24 h,trypomastigote,2.75
CS(=O)(=O)N1CCN(c2ccc(C(=O)N[C@H](Cc3c[nH]c4ccccc34)C(=O)Nc3ccncc3)c(F)c2)CC1,,mouse C2C12 myoblasts,CA-I/72,72 h,,> 10
CCOC(=O)CC1SC(=NN=C2CCCc3ccccc32)NC1=O (stereo not drawn),parasite growth,,,24 h,trypomastigote,27.9
O=C(c1ccc(NCc2cncn2Cc2ccc(-c3ccccc3)cc2)cc1-c1ccccc1)N1CCCCC1,parasite growth,mouse Fibroblast,,,"intracellular, amastigote",0.039
CC[C@@H]([C@H](C)O)n1ncn(-c2ccc(N3CCN(c4ccc(OC[C@@H]5CO[C@@](Cn6cncn6)(c6ccc(F)cc6F)C5)cc4)CC3)cc2)c1=O,parasite growth,NIH3T3,,,"intracellular, amastigote",0.0003
N#CSCCOc1cccc2ccccc12,parasite growth,,,,"intracellular, amastigote",> 10
O=C(N[C@H](Cc1c[nH]c2ccccc12)C(=O)Nc1ccncc1)c1ccc(N2CCN(S(=O)(=O)c3ccc(C(F)(F)F)cc3)CC2)cc1F,,mouse C2C12 myoblasts,CA-I/72,72 h,,2.8 ± 3.3
N#CSCCOc1cccc(Oc2ccccc2F)c1,amastigote growth,,tdTomato labelled,,intracellular amastigotes,7
O=C1C=CS(=O)(=O)c2ccc(Br)cc21,intracellular amastigote growth,U-937,"Tulahuen, β-galactosidase transfected",72 h,,73.2
CCOC(=O)CC1SC(=NN=Cc2ccc(C)cc2)NC1=O (stereo not drawn),parasite growth,,,24 h,trypomastigote,29.3
O=C1C=CS(=O)(=O)c2ccc(F)cc21,intracellular amastigote growth,U-937,"Tulahuen, β-galactosidase transfected",72 h,,1210
CCOC(=O)c1csc(NN=Cc2cccc(Br)c2)n1,parasite growth,,,24 h,trypomastigote,46.7
O=C1C=CS(=O)(=O)c2ccccc21,intracellular amastigote growth,U-937,"Tulahuen, β-galactosidase transfected",72 h,,103
COC(=O)c1ccc(NCc2cncn2Cc2ccc(F)cc2F)cc1-c1ccccc1,amastigote growth,3T3 fibroblasts,Tulahuen,,,0.025

# Repeated from above:
SMILES,read-out,cells,strain,time,notes,EC50 [µM]
O=C1C=CS(=O)(=O)c2ccc(Br)cc21,intracellular amastigote growth,U-937,"Tulahuen, β-galactosidase transfected",72 h,,73.2
O=C(N[C@H](Cc1c[nH]c2ccccc12)C(=O)Nc1ccncc1)c1ccc(N2CCN(S(=O)(=O)c3cccs3)CC2)cc1F,,mouse C2C12 myoblasts,CA-I/72,72 h,,0.00082 ± 1e-05
